Results gathered from unrelated publications.
Compare with care: the assays were run in different laboratories. ± gives the spread as reported.
Organism: Klebsiella aerogenes

COc1c(NC(=O)c2ccc(NC(=O)c3ccc(NC(=O)[C@H](CC#N)NC(=O)c4ccc(NC(=O)/C(C)=C/c5ccc(O)cc5)cc4)cc3)c(OC)c2O)ccc(C(=O)O)c1O  MIC (microbial growth; DSM30053): > 64 µg/mL
COc1cc(OC)c2c(c1)C(=O)c1cc3oc(=O)cc(-c4ccc(Cl)cc4)c3c(O)c1C2=O  MIC: 32 µg/mL
c1ccc(CN2CCOCCOCCN(CCCCCCCCCCCCCCN3CCOCCOCCN(CCCCCCCCCCCCCCN4CCOCCOCCN(Cc5ccccc5)CCOCCOCC4)CCOCCOCC3)CCOCCOCC2)cc1  MIC (cephalosporin-resistant): 12 µM
CCOC(=O)C1=C(C)NC2=C(C(=O)CC(C)(C)C2)C1c1ccc(OCC(=O)NN=Cc2cccc([N+](=O)[O-])c2)cc1OCC(=O)NN=Cc1cccc([N+](=O)[O-])c1 (stereo not shown)  inhibition zone diameter (CCM 2531; concentration not given, 24 h, 37 °C): 3.1 ± 0.01 mm
Cc1cc(O)cc2c1C(=O)c1c(cc3oc(=O)cc(C)c3c1O)C2=O  inhibition zone (microbial growth, disc diffusion; 100 µg/disc): 14 mm
c1ccc(CN2CCOCCOCCN(CCCCCCCCCCN3CCOCCOCCN(CCCCCCCCCCN4CCOCCOCCN(Cc5ccccc5)CCOCCOCC4)CCOCCOCC3)CCOCCOCC2)cc1  MIC (cephalosporin-resistant): 26 µM
COc1c2c(cc3oc(=O)cc(-c4ccc(Cl)cc4)c13)C(=O)c1cc(C)cc(O)c1C2=O  MIC: > 100 µg/mL
CCOC(=O)C1=C(C)NC2=C(C(=O)CC(C)(C)C2)C1c1ccc(OCC(=O)NN=Cc2cc(Br)c(O)c(Br)c2)cc1OCC(=O)NN=Cc1cc(Br)c(O)c(Br)c1 (stereo not shown)  inhibition zone diameter (CCM 2531; concentration not given, 24 h, 37 °C): 7.3 ± 0.01 mm
CN1/C(=C/C=C/c2cc(-c3ccccc3)cc(-c3ccccc3)[o+]2)C(C)(C)c2ccccc21  MIC (microbial growth, broth dilution; ATCC13048): 16 µg/mL
CO[C@@H](C(N)=O)[C@H](NC(=O)c1ccc(NC(=O)c2ccc([N+](=O)[O-])cc2)cc1)C(=O)Nc1ccc(C(=O)Nc2ccc(C(=O)Nc3ccc(C(=O)O)cc3)c(O)c2OC(C)C)cc1  MIC (microbial growth; DSM30053): > 64 µg/mL

Some of these lines once more:
COc1c2c(cc3oc(=O)cc(-c4ccc(Cl)cc4)c13)C(=O)c1cc(C)cc(O)c1C2=O  MIC: > 100 µg/mL
